Measured values gathered from unrelated publications.
Protocols differ between the studies behind these lines. ± marks the error that the study gave.
Cell line: HeLa

`CO[C@@H]1[C@@H](O[C@@H]2O[C@H](C)[C@@H](O[C@H]3C[C@@](C)(O)[C@@H](OC(=O)Nc4ccc(C)cc4)[C@H](C)O3)[C@H](N(C)C)[C@H]2O)[C@@H](CC=O)C[C@@H](C)[C@@H](O[C@H]2CC[C@H](N(C)C)[C@@H](C)O2)/C=C/C=C/C[C@@H](C)OC(=O)C[C@H]1O` gave an IC50 of 9.91 µM (cell growth or viability, CCK-8; 72 h).
The IC50 of `COc1ccc(C[C@H](NC(=O)[C@H](C)NC(=O)CN2CCOCC2)C(=O)N[C@@H](Cc2ccccc2)C(=O)C2(C)CO2)cc1` (stereo in doubt) is reported as 0.35 µM (cell growth or viability, resazurin; 48 h).
For `CCN(CC)CCO/N=C1/C=C2CCC3C(CC[C@]4(C)/C(=C/c5ccccn5)CCC34)[C@@]2(C)CC1` (stereo partly drawn), the IC50 was greater than 100 µM (cell growth or viability, MTT; 72 h).
`Clc1ccc(C=[N+]2N=C(Nc3ccccc3)[S][Pd-]2([Cl])[Cl])s1` has an IC50 of 180 µM (cell growth or viability).
`O=C(Cn1ccc(-c2ccc(OCCN3CCOCC3)cc2)cc1=O)NCc1ccccc1` has an IC50 of 0.24 µM (cell growth or viability, CCK-8; 48 h).
With `CCc1ccc([C@H](C)CC(=O)NC(=O)N[C@@H]2O[C@H](CO)[C@@H](O)[C@H](O)[C@H]2O)cc1` the IC50 was greater than 250 µM (cell growth or viability; 96 h).
`O=S([O-])c1ccccc1N=Cc1ccccc1[O-].[Cu+2].c1c[nH]cn1` has an IC50 of 1.86 ± 0.05 µM (cell viability, MTT; 24 h).
With `CN(C)c1ccc(CNC(=O)Cc2ccc(-c3ccc(OCCN4CCOCC4)cc3)cn2)cc1` the IC50 was 0.48 µM (cell growth or viability, CCK-8; 48 h).
For `COc1cc(CN2CCN(c3ccc([N+](=O)[O-])cc3)CC2)c2cc3[n+](cc2c1O)CCc1cc2c(cc1-3)OCO2`, the IC50 was 5.95 µg/mL (cell growth or viability, SRB; 48 h).
`O=C(Cc1ccc(-c2ccc(OCCN3CCOCC3)cc2)cn1)NCc1ccc(C(F)(F)F)cc1` gave an IC50 of 0.27 µM (cell growth or viability, CCK-8; 48 h).
For `O=[N+]([O-])[O-].O=[N+]([O-])[O-].[Cu+2].[Cu+2].c1ccc(-c2nc(-c3ccc4c(c3)OCO4)n[n-]2)nc1.c1ccc(-c2nc(-c3ccc4c(c3)OCO4)n[n-]2)nc1`, the IC50 was 3.57 µM (cell growth or viability, MTT; 24 h).
`CC1=CC(c2cccc(C(F)(F)F)c2)=[O+][Ru-]([Cl])[O]1.Cc1c(C)c(C)c(C)c(C)c1C` has an IC50 of 6.1 µM (cell growth or viability, MTT).
With `O=C(CCCCCCNC(=O)c1cc(C(=O)c2ccccc2)cn1Cc1ccc(F)cc1)NO` the IC50 was 2 µM (cell growth or viability, resazurin; 72 h).
For `Cc1ccc(/C=N/NC(=O)c2cc3cc(Nc4nccc(-c5cccnc5)n4)ccc3[nH]2)cc1`, the IC50 was 6.43 µM (cell growth or viability, MTT; 48 h).
With `C[C@@H]1CC[C@@H]([C@](O)(CNCc2ccccc2F)COCc2ccccc2)[C@H](OCc2ccccc2)C1` the IC50 was 2.4 µM (cell growth or viability, MTT; 72 h).
`CC1=CC(c2ccccc2)=[O+][Pt-2]([NH3+])([NH3+])[O]1.O=[N+]([O-])[O-]` (stereo not drawn) has an IC50 of 24 µM (cell growth or viability, MTT).
`COc1ccc(NC(=O)O[C@H]2[C@H](C)O[C@@H](O[C@H]3[C@H](N(C)C)[C@@H](O)[C@H](O[C@H]4[C@@H](CC=O)C[C@@H](C)[C@@H](O[C@H]5CC[C@H](N(C)C)[C@@H](C)O5)/C=C/C=C/C[C@@H](C)OC(=O)C[C@@H](O)[C@@H]4OC)O[C@@H]3C)C[C@@]2(C)O)cc1` has an IC50 of greater than 50 µM (cell growth or viability, CCK-8; 72 h).
`O=[N+]([O-])c1ccc(NC(=S)N/N=C/c2cccs2)cc1` gave an IC50 of 12 µM (cell growth or viability).
`COc1cc(OC)c(/C=C/C(=O)c2c(OC)cc(OC)cc2OC)c(OC)c1` has an IC50 of 72.2 µM (cell growth or viability, MTT; 48 h).
With `CC[C@@H]1C(=O)N(C)c2cnc(Nc3ccc(C(=O)NCCCC[C@H](NC(C)=O)C(N)=O)cc3OC)nc2N1C1CCCC1` the IC50 was 0.6 µM (cell growth or viability, MTT; 48 h).
The IC50 of `CCCCCCCC[P+](c1ccccc1)(c1ccccc1)c1ccccc1` is reported as 0.34 µM (cell growth or viability, resazurin; 72 h).
The IC50 of `COc1ccc(C(C)(O)C(C)(C)C(=O)O)cc1` (stereo not drawn) is reported as 126 µM (cell growth or viability; 72 h).
`Cc1cc(/C=C/C#N)cc(C)c1Oc1cc(Nc2ccc(C#N)cn2)nc2ccncc12` has an IC50 of greater than 120 µM (48 h).
`CC(C)OC(=O)[C@]12CS[C@H](c3ccccc3)N1C(=O)/C(=C(\O)CCc1ccccc1)C2=O` gave an IC50 of 15.6 µg/mL (cell growth or viability, resazurin).
`Cc1cn(CC(=O)N[C@@H](Cc2ccccc2)C(=O)N[C@@H](Cc2ccccc2)C(=O)O)c(=O)[nH]c1=O` has an IC50 of greater than 500 µM.
For `CCC1=C(CC)C2=[N+]3C1=Cc1c(CC)c(CC)c4[n]1[Ir-3]31([C]#[N+]c3ccc(OC)cc3)([C]#[N+]c3ccc(OC)cc3)[n]3c(c(CC)c(CC)c3=CC3=[N+]1C(=C4)C(CC)=C3CC)=C2.F[B-](F)(F)F`, the IC50 was 7.9 µM (cell growth or viability, MTT; 72 h).
The IC50 of `CCn1cc(/C=C/c2sc3ccccc3[n+]2CC)c2ccccc21` is reported as 5.41 µM (cell growth or viability, MTT; 24 h).
`COc1cc(CN2CCN(c3ccc(C)cc3)CC2)c2cc3[n+](cc2c1O)CCc1cc2c(cc1-3)OCO2` has an IC50 of 4.35 µg/mL (cell growth or viability, SRB; 48 h).
The IC50 of `CC(=O)OC[C@H]1O[C@@H](NC(=O)/C=C/c2ccc(C(C)C)cc2)[C@H](OC(C)=O)[C@@H](OC(C)=O)[C@@H]1OC(C)=O` is reported as 124 µM (cell growth or viability; 96 h).
The IC50 of `COc1cc(C(=O)c2[nH]c(N)nc2-c2cccs2)cc(OC)c1OC` is reported as 0.036 µM (cell growth or viability, SRB).
With `CC(C)(C)c1cc2c(O)c(c1)Cc1cc(C(C)(C)C)cc(c1OCC(=O)Nc1cccc3cccnc13)Cc1cc(C(C)(C)C)cc(c1O)Cc1cc(C(C)(C)C)cc(c1OCC(=O)Nc1cccc3cccnc13)COC2` the IC50 was 7.3 µM (cell growth or viability, MTT; 72 h).
With `C=C1C(=O)OC2C=C(C)CCC=C(C(=O)OC(C)C(C)(O)C(=O)OC3C(OC(C)=O)C(C(=O)OC)=CCCC(C)=CC4OC(=O)C(=C)C43)CC(OC(=O)C(C)=CC)C12` (stereo not drawn) the IC50 was 1.69 µM (cell growth or viability; 48 h).
For `N#Cc1c(-c2cccs2)cc(-c2cccc3ccccc23)n2c(Cc3ccccc3)nnc12`, the IC50 was 1.14 µM (cell growth or viability, MTT; 72 h).
With `Cc1cc(N2CCN(C(=O)CN3CCN(C)CC3)CC2)n2ncnc2n1` the IC50 was 52.4 µM (cell growth or viability, MTT).
The IC50 of `C[C@@H]1CC[C@@H]([C@](O)(CNCc2cccc(F)c2)COCc2ccccc2)[C@H](OCc2ccccc2)C1` is reported as 2.8 µM (cell growth or viability, MTT; 72 h).
`CO[C@@H]1[C@@H](O[C@@H]2O[C@H](C)[C@@H](O[C@H]3C[C@@](C)(O)[C@@H](OC(=O)CC(C)C)[C@H](C)O3)[C@H](N(C)C)[C@H]2O)[C@@H](CC=O)C[C@@H](C)[C@@H](O[C@H]2CC[C@H](N(C)C)[C@@H](C)O2)/C=C/C=C/C[C@@H](C)OC(=O)C[C@H]1O` gave an IC50 of 6.23 µM (cell growth or viability, CCK-8; 72 h).
`S=c1n(-c2ccccc2)c2c3ccccc3nc3[n+]2[n]1[Ir-3]12([S]3)([c]3ccc4ccccc4c3-c3sc4ccccc4[n+]31)[c]1ccc3ccccc3c1-c1sc3ccccc3[n+]12` has an IC50 of greater than 25 µM (cell viability, MTT; dark).
For `O=C(/C=C/c1ccc(-c2ccccc2)cc1)NC(=O)N[C@@H]1O[C@H](CO)[C@@H](O)[C@H](O)[C@H]1O`, the IC50 was greater than 250 µM (cell growth or viability; 96 h).
`C[C@@H]1CC[C@@H]([C@@](O)(CNCc2ccc(F)cc2)COCc2ccc(F)cc2)[C@H](OCc2ccc(F)cc2)C1` gave an IC50 of 2.7 µM (cell growth or viability, MTT; 72 h).
`F[P-](F)(F)(F)(F)F.O=C(CCC(=O)c1ccccc1)NCCN(CC(=O)Nc1ccc(C#CCN(Cc2ccccn2)Cc2ccccn2)cc1)C(=O)CCc1cn(C[c-]2cccc2)nn1.[C-]#[O+].[C-]#[O+].[C-]#[O+].[Fe+2].[Re+].c1cc[cH-]c1` has an IC50 of 13.5 ± 2.6 µg/mL (cell viability, resazurin; 48 h).
With `CC(=O)NCCCN(C)CCCNc1cccc2c1C(=O)c1cccc(NCCCN(C)CCCNC(C)=O)c1C2=O` the IC50 was 1.4 µM (cell growth or viability, CCK-8; 48 h).
With `CC(=O)[C@@H]1CCCN1C(=O)[C@@H]1CCCN1C(=O)[C@H](Cc1ccccc1)NC(=O)OC(C)(C)C` the IC50 was 6 µM (cell growth or viability, SRB).
`Brc1cccc(CNc2nc(NCc3ccccc3)c3ccccc3n2)c1` gave an IC50 of 12 ± 3 µM (ODD-Luc degradation; p97-independent substrate).
The IC50 of `[Cl][Pd-2]1([Cl])[N+](=Cc2ccc[nH]2)Cc2cccc[n+]21` is reported as 45.5 µg/mL (cell growth or viability, MTT; 24 h).
The IC50 of `CC(C)=CCCC(C)(O)C1CCC2(C)C1C(O)CC1C3(C)CCC(OC4OC(COC(=O)CCCCCN5C(=O)C=CC5=O)C(O)C(OC(=O)CCCCCN5C(=O)C=CC5=O)C4O)C(C)(C)C3CCC12C` (stereo not drawn) is reported as 14.2 µM (cell growth or viability, MTT).
For `O=C(Nc1ccc(-c2ccc(OCCN3CCOCC3)cc2)cn1)NS(=O)(=O)c1ccccc1`, the IC50 was greater than 4 µM (cell growth or viability, CCK-8; 48 h).
The IC50 of `COc1ccc(-c2noc(NC(=O)c3cccc(C(F)(F)F)c3)c2C#N)c(OC)c1` is reported as 75.8 µM (cell growth or viability, MTT; 72 h).
`CCCCCCCC(=O)O[C@H]1[C@H](C)O[C@@H](O[C@H]2[C@H](N(C)C)[C@@H](O)[C@H](O[C@H]3[C@@H](CC=O)C[C@@H](C)[C@@H](O[C@H]4CC[C@H](N(C)C)[C@@H](C)O4)/C=C/C=C/C[C@@H](C)OC(=O)C[C@@H](O)[C@@H]3OC)O[C@@H]2C)C[C@@]1(C)O` gave an IC50 of 7.13 µM (cell growth or viability, CCK-8; 72 h).
The IC50 of `Cc1cn([C@@H]2O[C@H](CSSC[C@H]3O[C@@H](n4cc(C)c(=O)[nH]c4=O)[C@H](O)[C@@H](F)[C@@H]3O)[C@@H](O)[C@H](F)[C@H]2O)c(=O)[nH]c1=O` is reported as greater than 500 µM (cell growth or viability).
With `C[C@]12CC/C(=N\O)C=C1CCC1C2CC[C@]2(C)/C(=C/c3ccccn3)CCC12` (stereo partly drawn) the IC50 was greater than 100 µM (cell growth or viability, MTT; 72 h).
The IC50 of `CCCCCCCCCCCCCCCCOc1c(O)cc(C(=O)O[C@@H]2Cc3c(O)cc(O)cc3O[C@@H]2c2cc(O)c(O)c(O)c2)cc1O` is reported as 105 µM (cell growth or viability, CCK-8; 24 h).
